Measurements collected from several papers.
Each numbered part is a random draw from the data of one study; scales do not carry over between parts.

Series 1
Target: RING finger protein unkempt homolog, zinc fingers 1-6, GST-SBP tag (UNK, Homo sapiens, UniProt Q9C0B0, residues 30-357)
Method: RNA Bind-n-Seq
Molecule type: RNA
Matrix: in vitro
Tested at: not given
Setting: RNA with constant flanks, ends assumed
Reference: input RNA pool
Reading: higher = stronger binding
Constant ends, left off below: GGGAGUUCUACAGUCCGACGAUC … CAACAGAGGAUUGAGCAUCA
Construct (chain): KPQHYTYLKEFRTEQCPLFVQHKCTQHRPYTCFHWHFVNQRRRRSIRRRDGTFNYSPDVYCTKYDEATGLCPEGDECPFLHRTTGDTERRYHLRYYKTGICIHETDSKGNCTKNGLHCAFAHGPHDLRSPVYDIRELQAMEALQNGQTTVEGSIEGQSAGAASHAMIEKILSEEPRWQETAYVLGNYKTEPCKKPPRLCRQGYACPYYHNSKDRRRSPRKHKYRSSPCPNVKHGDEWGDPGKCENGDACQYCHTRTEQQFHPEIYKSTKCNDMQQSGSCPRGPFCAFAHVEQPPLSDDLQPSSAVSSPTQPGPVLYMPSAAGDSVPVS
Sequence	bound/input enrichment [ratio]
CUUUGCGAGCAGAAACGGGAGACCUGUGCAGAUGGUGAGGCAGCAGGCUGCACUAUCAACAACCGCCUAUCCAACAUCCAGUGGCUUCGAAAGAUGAGUUCUGAUGGACUGGGCUCCCGC	0.0748
UGUCUGCCUCAUUCUAAAAUUUACACAGUAGACCAUUUGUCAUCCAUGCUGUCCCACAGACCGUUUUUUUGUUUACGAUUUAUGACAGGUUUAUGUUACUUCUAUUUGAAUUUCUAUAUU	0.39
AAAAGACCAUAUGUUGAUUCUACCUGUGUUCUGUUCCAGCGAAUUGGGAAGUCUCACCAAGCCCGAUUGUCUACCAUCAGCCCAGAACUCUGUAACUUUUCAGAACUGCUAUACUCAAAC	0.157
UGUCUGGACCGGCACUGGGUUCUGCAGGGUUGAAGACGGGCAACAGAUGCCAGAAGCUCCCUCCGACUGUCACCUGAGUCUGGAGACCGGCUCGCAGCCCCACAGCAUCACACUGCAAGU	0.131
ACUGAAUUAAAUCAUCAUGCAUAUUUAUUUCUCCAAAGCACCUUUGACAAGCAUGAUUUGGACCGAGACUGUGCUUUGUCACCUGAUGAGCUUAAAGAUUUAUUUAAAGUUUUCCCUUAC	0.222
GUGUUGUGACCCAUUUAACAUACACAAGAAGCUAGCCAAAAAGAACCUGCACGUCAUUGACUCCGAUGAUGCCACUUUUCUGAGCGCCAAGUUUGGAAGACAGCUUGUACCUGGUUGGAA	0.29
GACACAGUGUGUCUCUCUGAUUGGGCUUCUAAAUCAAAAGCCUGAUGUUCGUGUCCCUCUCACCGGGGGAGCUUUGGACACAGGACCAGUUUGGAAAAGGGUCAGGUAAGGGUUUCCACU	0.109
AAAAUAUAUAUAAAUUUACUUCACUGCUUUUUUUUUUUUUGGACAUAAGGGCUGUGUGUAUACCGCCCCUGUUGGCCUCAAAACUCACAGUCCUCUCAUCAAGAGGUAGGAUUCUGGGCA	0.853

Series 2
Target: Sal-like protein 4, full length isoform A (SALL4, Homo sapiens, UniProt Q9UJQ4, residues 1-1053)
Sequence of UniProt Q9UJQ4 (whole entry, looked up): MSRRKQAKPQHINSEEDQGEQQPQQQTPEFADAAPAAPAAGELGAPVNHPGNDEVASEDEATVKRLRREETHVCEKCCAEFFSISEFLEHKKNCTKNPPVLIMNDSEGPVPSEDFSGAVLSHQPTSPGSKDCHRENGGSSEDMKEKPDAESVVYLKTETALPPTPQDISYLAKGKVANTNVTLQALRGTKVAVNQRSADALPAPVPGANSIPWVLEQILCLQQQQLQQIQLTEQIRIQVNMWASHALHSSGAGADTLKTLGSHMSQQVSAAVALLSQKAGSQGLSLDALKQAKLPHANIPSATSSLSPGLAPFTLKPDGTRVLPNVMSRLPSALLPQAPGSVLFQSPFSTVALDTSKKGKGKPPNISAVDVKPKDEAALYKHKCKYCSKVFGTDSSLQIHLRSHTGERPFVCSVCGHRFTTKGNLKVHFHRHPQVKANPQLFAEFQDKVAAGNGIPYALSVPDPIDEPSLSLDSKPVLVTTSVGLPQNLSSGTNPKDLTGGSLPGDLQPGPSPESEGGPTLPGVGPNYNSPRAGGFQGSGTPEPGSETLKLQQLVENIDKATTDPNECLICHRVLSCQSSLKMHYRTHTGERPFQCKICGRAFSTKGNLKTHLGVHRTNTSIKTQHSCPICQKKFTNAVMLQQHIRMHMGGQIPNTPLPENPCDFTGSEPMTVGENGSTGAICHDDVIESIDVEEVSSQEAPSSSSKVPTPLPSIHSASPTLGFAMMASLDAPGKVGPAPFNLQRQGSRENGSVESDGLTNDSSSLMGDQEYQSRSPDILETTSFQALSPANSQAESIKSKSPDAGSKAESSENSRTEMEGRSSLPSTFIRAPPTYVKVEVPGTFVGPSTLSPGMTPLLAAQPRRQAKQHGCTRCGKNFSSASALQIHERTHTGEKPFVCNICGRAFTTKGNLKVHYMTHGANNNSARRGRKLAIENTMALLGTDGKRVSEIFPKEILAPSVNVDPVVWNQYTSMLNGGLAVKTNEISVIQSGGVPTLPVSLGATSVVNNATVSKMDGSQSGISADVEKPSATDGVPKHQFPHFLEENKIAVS
Method: universal PBM
Molecule type: double-stranded DNA, one strand shown
Matrix: in vitro
Tested at: 600 nM
Setting: 8-mer, flanks averaged, mean of replicates
Reading: higher = stronger binding
Sequence	E-score
AATCTACT	0.195
AAGCTATT	0.187
GACAAAAA	0.216
AAAACGCC	-0.0593
ACTCTCTC	-0.197
ATAAAAAG	0.312
GCATGCAA	0.0484
GGGCATAA	0.151
AAACCAAA	0.19
CCAATCGG	-0.188
AGGTCAAA	0.0387
ATGCCTAG	0.0513
CAGGAGTA	-0.0789
CTGGCTCA	-0.133
CTAACCTA	0.0624
AGTCCTGA	-0.0463
CCAAAAAG	0.199
CGCCCAGA	-0.248
CCATAGGA	0.0386
GGCGTACC	-0.281
ACAGGATC	-0.159
AACTTACC	-0.0246
AGAGGATG	-0.0891
CTACATAA	0.127

Series 3
Target: RNA binding protein fox-1 homolog 2, RRM domain, GST-SBP tag (RBFOX2, Homo sapiens, UniProt O43251-10, residues 100-194)
Method: RNA Bind-n-Seq
Molecule type: RNA
Matrix: in vitro
Tested at: 365 nM
Setting: natural RNA segment, single round, ends assumed
Reference: no-protein control
Reading: higher = stronger binding
Constant ends, left off below: GGGAGUUCUACAGUCCGACGAUC … UGGAAUUCUCGGGUGCCAA
Construct (chain): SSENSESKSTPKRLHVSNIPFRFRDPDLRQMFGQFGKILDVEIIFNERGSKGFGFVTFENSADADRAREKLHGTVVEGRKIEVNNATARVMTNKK
Sequence	RBNS enrichment (R)
GGGUGGGAUUCCACUCGUGUGUUUCUAUUUUUUGAAAAGCAGACAUUUUAAAAAAUGGUCACGUUUGGUGCUUCUCAGAUUUCUGAGGAAAUUGCUUUGUAUUGUAUAUU	1.94
UCCCCUCCCAGGGGAGCCAGCUGCUUGACCUAGCUCUUUGGGCCUCUCCUGCCCUCUGCUCUGCCUGGAGUGUCGGAUCCUGUGAGUAGGCUGGGCCUCCCCUGGGCAGG	0.469
AGAGUCCUGGCUGCUGUUGCCAUCUGAAUGCGCCCUUCCCUUUCAGGUUGACCAGCAGUGGCCUUACCUGGCCUCUCAGGUGGAUGGAGGCUGUUCUCAUCUGGGGCUGU	0.457
UAUUAGUAUCUUCUCAGAUACAGACCGUUUUAUGAUUUUUUAAAAAGUAAAAGUUCUAAAAUGAAGUCACACAGGACAAUUAUUCUUAUGCCUAAGUUAACAGUGGAUAA	0.373
UCCAGCCGUGCUUGGCCUCAGGGCUGGCAGCCGGAUCCUGGGGCAACCCAUCUGGUCUCUUGAAUAAGGUCAAAGCUGGAUUCUCGCCAUGGCCUCCGUCUCACAUCUAA	0.282
GGUAGAGUUUCUUUUUUUCUUUUUGUAAUCAUGAGUUCCCUUGACUCCCCUCUUGAUUUUCUAUCUUGAUUUAUCCUGCAGGCAUGUCCUACCUUUUGACAUUGUGACUU	1.69
GGGAAAAGAAAAGGAAGAAAAAGUGCAUAGAGCUGGCCUGGAACACGUCCCGCCGUUGGAGAAGGAGCGCGGGGGCGUUAGUGGACCCGCGCUCCCAUCCCCCACUCUCA	1.07
UUUGCACUAAAUUAGUGACUUGGACUUUUGCCCAGUGAAGACAGGCUGUGACACUCUGGAUGUCUUGGUGUGUGUAGACACACAUUGCAGACUCUUAACGCAGGAAGGAC	0.756

Series 4
Target: Histone acetyltransferase KAT6A, both winged helices, GST fusion (KAT6A, Homo sapiens, UniProt Q92794, residues 1-181)
Method: protein binding microarray
Molecule type: double-stranded DNA, one strand shown
Matrix: in vitro
Tested at: not given
Setting: 8-mer, flanks averaged, mean of 2 arrays, mostly near background
Reference: not given
Reading: higher = stronger binding
Construct (chain): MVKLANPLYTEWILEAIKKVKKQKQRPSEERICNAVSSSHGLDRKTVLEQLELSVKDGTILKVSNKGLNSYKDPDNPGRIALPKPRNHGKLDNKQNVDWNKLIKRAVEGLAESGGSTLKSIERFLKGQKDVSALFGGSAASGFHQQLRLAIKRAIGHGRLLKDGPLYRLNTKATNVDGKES
Sequence	E-score
CTATAGAC	-0.0595
AGAGGCGA	-0.15
ATAAGCAT	-0.0994
CGAACTAC	-0.0353
CGCAACAG	0.0852
AAAGGGTG	-0.126
CAGGGCCG	0.199
GGCAATAA	-0.073
TCACGAGA	-0.222
TATCCAAA	-0.0297
AGTCTCTC	-0.128
AAGAAAGC	-0.119
ACGGCGGG	0.34
CGCCGCTA	0.346
AACTCCAA	-0.151
CTACAGTC	-0.111
AAATCAAA	0.0105
TTACTCAA	-0.0652
CATTCGCC	0.139
AGGCTGCG	-0.0353
AAAATCGG	-0.0367
CTTAAACC	-0.117
AAGGAGTA	-0.146
CCGTAACC	0.272
TCAATTGA	-0.0984

For quick reference, copied from above (series 4):
Sequence	E-score
CCGTAACC	0.272
CTACAGTC	-0.111
AAAGGGTG	-0.126
CTTAAACC	-0.117
GGCAATAA	-0.073
AGTCTCTC	-0.128
CGCAACAG	0.0852
TATCCAAA	-0.0297
AACTCCAA	-0.151
